Published values collected from several papers.
Protocols differ between the studies behind these lines. ± gives the spread as reported. In brackets after ≈: the same amount, converted by molar mass.

SMILES	test	system	conditions	scale	quantity	result
CCC(CC)n1c(Cc2cccs2)nc2cc(C(=O)N[C@@H](CC(=O)O)c3ccccc3)ccc21		male Sprague-Dawley rat, plasma	intravenous, 1 mg/kg		MRT(0-t)	51.6 min
CN1CCC[C@]1(C)/C=C/S(=O)(=O)NC(=O)Nc1c2c(cc3c1CC(O)C3)CCC2 (some centres unmarked)		human, plasma	oral, 100 mg twice daily of parent drug, day 14, metabolite of dosed drug		AUC(0-inf)	290 µg·h/mL
O=C(CCC(F)(F)F)Nc1ccc(C2CCCCC2)cc1	liver microsome stability	rat liver microsomes	1 µM		hepatic clearance	50 mL/min/kg
COc1cccc(OC)c1-c1cc(C(=O)NC2(C(=O)O)C3CC4CC(C3)CC2C4)nn1-c1ccc(C(=O)N(C)CCCN(C)CCCN(C)C(=O)[C@H](CCCCNC(=O)[C@H](CC(C)C)NC(=O)C2OC2C(=O)O)NC(=O)CN2CCN(CC(=O)[O-])CCN(CC(=O)[O-])CCN(CC(=O)[O-])CC2)cc1C(C)C.[177Lu+3] (mixture of isomers)		mouse, HT-29 xenograft	24 h post injection, biodistribution	reference: tumour over blood uptake	tumour-to-blood ratio	23.9
O=C(NCCO)c1ccc(C2CCCCC2)cc1	hepatocyte stability	cryopreserved rat hepatocytes	1 µM		hepatic clearance	48 mL/min/kg
C=C(NC(=O)c1csc(-c2nc3c(cc2O)-c2nc(cs2)C(=O)NC(C(C)O)C(=O)NC(=C(C)OC)c2nc(cs2)C(=O)NC2c4nc(cs4)C(=O)NC(COC(=O)c4c5c6c(cccc6n4O)COC(=O)C(OC4CC(C)(O)C(N(C)C)C(C)O4)C2OC5)c2nc-3cs2)n1)C(N)=O (centres unmarked)		Sprague-Dawley rat, both sexes, plasma	intravenous infusion, 18 mg/kg single dose		volume of distribution	29.8 L/kg
COc1cc2c(cc1O)CCN1C[C@@H](CC(C)C)[C@@H](O)C[C@H]21	item: non-deuterated analyte	healthy human male, plasma	oral, 25 mg, median, [14C]-tetrabenazine dosed		Tlag	0.5 h
Cc1nc(N)nc2c1C(=O)N[C@@H](c1ccc(F)cc1-c1cccc(O[11CH3])n1)C2	ex vivo biodistribution	mice, MDA-MB-231 subcutaneous xenograft, bone	60 min post-injection, baseline, vehicle pre-treatment		tracer uptake	8.6 ± 0.9 %ID
CS(=O)(=O)c1ccc(-c2ccc([C@H]3[C@@H](F)[C@@H](F)C[C@@H](F)[C@H]3F)cc2)cn1	liver microsome stability	cynomolgus liver microsomes	1 µM		hepatic clearance	5.7 mL/min/kg
CC[C@H](C)[C@@H]1NC(=O)[C@H](Cc2ccc(O)cc2)NC(=O)CCCSC[C@@H](C(=O)N(CC(=O)N[C@@H](CC(C)C)C(=O)NCC(N)=O)Cc2ccc(F)cc2)NC(=O)[C@H](CC(N)=O)NC(=O)[C@H](CCC(N)=O)NC1=O		human	intranasal, 15 µg single dose		AE leading to discontinuation	0%
CCN(CC)c1ccc2c(c1)O[B-]1(c3ccccc3C#N)OC(=O)C(c3ccccc3)=N[N+]1=C2 (centres unmarked)		toluene			fluorescence lifetime	2.66 ns
CC(=O)Nc1ccc([C@H]2[C@@H](F)[C@@H](F)C[C@@H](F)[C@H]2F)cc1	liver microsome stability	mouse liver microsomes	1 µM		hepatic clearance	77 mL/min/kg
CC(=O)N([O-])CCCCCNC(=O)CCC(=O)N([O-])CCCCCNC(=O)CCC(=O)N([O-])CCCCCN.[89Zr+4]	radio-TLC	aqueous buffer	1 d, pH 7.2, 37 °C, 89Zr-labelled complex, together with: FeCl3 10-fold excess		intact complex	92.2 ± 1.5%
O=S1(=O)CC2CCCCC2CS1 (centres unmarked)	phase solubility, NMR	water	25 °C, together with: hydroxypropyl-β-cyclodextrin 1148 mM		solubility	135 mM (≈ 27.9 mg/mL)
Cc1ccc(OCC(=O)N(Cc2cccs2)c2ccn[nH]2)cc1		monkey plasma	750 ng/mL, 4 h, 37 °C, unit not given	reference: time zero	remaining compound	77.8
O=C(c1ccc(C2CCCCC2)cc1)N1CCCC1	liver microsome stability	human liver microsomes	1 µM, without NADPH		hepatic clearance	3.9 mL/min/kg
CN([O-])C(=O)CN1CCN(CC(=O)N(C)[O-])CCN(Cc2ccccn2)CC1.[89Zr+4]		mouse, kidney	intravenous, 1 h		tracer uptake	1.64 %ID/g
